Experimental data pooled from the literature.
Each line is one published result; not all experiments were run side by side.
Mode: inhibitor
MPO: Myeloperoxidase (MPO, Homo sapiens, UniProt P05164)
Sequence of UniProt P05164 (whole entry, looked up): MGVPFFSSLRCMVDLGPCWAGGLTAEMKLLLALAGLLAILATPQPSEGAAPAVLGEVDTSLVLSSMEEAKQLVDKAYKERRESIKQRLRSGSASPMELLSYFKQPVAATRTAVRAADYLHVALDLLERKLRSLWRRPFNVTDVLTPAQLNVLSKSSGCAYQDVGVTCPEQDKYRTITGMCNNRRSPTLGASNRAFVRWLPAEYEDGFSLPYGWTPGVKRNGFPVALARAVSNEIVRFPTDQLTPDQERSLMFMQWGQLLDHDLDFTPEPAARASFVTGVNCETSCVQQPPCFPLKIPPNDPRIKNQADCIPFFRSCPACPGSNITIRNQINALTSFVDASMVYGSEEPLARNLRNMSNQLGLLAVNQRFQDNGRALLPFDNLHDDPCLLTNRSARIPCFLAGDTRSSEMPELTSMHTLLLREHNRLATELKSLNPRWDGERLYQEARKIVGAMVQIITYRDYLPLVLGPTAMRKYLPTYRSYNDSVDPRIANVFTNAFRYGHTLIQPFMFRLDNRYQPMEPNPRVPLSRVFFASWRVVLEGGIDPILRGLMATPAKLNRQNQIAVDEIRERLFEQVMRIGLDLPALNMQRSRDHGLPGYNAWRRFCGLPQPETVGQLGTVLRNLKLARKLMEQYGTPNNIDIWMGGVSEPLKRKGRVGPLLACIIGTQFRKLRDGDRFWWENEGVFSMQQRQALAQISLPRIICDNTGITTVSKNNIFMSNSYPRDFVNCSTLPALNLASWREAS
MAPK3: Mitogen-activated protein kinase 3 (MAPK3, Homo sapiens, UniProt P27361)
Sequence of UniProt P27361 (whole entry, looked up): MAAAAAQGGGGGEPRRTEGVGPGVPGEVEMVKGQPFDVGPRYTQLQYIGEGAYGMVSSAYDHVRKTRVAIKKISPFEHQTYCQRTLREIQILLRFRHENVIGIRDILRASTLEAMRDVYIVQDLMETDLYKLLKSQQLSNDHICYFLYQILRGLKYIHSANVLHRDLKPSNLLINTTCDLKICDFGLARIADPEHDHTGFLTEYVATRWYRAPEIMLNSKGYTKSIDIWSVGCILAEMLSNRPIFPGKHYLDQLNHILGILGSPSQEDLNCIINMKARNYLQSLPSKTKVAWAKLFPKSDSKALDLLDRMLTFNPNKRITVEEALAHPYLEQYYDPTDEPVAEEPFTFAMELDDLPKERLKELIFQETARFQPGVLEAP
SLC2A1: Solute carrier family 2, facilitated glucose transporter member 1 (SLC2A1, Homo sapiens, UniProt P11166)
Sequence of UniProt P11166 (whole entry, looked up): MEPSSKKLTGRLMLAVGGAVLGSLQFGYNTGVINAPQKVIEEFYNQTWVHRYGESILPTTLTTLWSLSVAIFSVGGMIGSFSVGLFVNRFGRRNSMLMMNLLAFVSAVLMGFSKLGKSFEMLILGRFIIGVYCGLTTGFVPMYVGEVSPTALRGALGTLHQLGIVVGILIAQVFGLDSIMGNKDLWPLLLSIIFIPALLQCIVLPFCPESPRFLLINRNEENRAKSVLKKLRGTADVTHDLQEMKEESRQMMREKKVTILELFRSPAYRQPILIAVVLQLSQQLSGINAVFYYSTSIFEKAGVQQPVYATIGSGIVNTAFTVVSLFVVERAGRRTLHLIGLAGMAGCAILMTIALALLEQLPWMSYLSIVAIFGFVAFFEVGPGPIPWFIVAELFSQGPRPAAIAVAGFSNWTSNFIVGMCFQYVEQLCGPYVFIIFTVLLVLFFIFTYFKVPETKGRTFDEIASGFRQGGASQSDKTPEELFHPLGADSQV
AAK1: AP2-associated protein kinase 1 (AAK1, Homo sapiens, UniProt Q2M2I8)
Sequence of UniProt Q2M2I8 (whole entry, looked up): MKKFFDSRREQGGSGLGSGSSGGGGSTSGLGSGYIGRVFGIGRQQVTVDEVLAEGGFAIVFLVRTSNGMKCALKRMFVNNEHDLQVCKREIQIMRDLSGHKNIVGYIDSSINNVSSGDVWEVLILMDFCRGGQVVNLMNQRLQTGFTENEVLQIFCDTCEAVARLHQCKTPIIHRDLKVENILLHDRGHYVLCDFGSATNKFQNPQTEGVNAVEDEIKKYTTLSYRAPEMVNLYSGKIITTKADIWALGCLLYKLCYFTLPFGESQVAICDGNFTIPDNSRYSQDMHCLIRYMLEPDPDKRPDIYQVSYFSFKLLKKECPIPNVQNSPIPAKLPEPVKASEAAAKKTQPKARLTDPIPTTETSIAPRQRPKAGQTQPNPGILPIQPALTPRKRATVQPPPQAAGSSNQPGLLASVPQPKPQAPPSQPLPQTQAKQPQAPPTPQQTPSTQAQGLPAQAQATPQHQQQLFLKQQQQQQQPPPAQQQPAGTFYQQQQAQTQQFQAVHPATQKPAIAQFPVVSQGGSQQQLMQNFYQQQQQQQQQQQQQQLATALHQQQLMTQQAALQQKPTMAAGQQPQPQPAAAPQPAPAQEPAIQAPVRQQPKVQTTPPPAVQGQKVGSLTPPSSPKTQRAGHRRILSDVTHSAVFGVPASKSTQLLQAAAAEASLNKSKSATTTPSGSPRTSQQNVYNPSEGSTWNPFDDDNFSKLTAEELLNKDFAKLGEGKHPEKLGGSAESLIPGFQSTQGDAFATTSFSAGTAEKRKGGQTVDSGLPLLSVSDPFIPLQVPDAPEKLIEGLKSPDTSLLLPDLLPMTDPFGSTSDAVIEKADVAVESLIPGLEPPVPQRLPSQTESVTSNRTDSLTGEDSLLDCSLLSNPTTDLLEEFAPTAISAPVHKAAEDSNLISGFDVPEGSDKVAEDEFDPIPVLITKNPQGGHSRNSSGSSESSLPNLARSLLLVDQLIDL
RET: Proto-oncogene tyrosine-protein kinase receptor Ret (RET, Homo sapiens, UniProt P07949)
Sequence of UniProt P07949 (whole entry, looked up): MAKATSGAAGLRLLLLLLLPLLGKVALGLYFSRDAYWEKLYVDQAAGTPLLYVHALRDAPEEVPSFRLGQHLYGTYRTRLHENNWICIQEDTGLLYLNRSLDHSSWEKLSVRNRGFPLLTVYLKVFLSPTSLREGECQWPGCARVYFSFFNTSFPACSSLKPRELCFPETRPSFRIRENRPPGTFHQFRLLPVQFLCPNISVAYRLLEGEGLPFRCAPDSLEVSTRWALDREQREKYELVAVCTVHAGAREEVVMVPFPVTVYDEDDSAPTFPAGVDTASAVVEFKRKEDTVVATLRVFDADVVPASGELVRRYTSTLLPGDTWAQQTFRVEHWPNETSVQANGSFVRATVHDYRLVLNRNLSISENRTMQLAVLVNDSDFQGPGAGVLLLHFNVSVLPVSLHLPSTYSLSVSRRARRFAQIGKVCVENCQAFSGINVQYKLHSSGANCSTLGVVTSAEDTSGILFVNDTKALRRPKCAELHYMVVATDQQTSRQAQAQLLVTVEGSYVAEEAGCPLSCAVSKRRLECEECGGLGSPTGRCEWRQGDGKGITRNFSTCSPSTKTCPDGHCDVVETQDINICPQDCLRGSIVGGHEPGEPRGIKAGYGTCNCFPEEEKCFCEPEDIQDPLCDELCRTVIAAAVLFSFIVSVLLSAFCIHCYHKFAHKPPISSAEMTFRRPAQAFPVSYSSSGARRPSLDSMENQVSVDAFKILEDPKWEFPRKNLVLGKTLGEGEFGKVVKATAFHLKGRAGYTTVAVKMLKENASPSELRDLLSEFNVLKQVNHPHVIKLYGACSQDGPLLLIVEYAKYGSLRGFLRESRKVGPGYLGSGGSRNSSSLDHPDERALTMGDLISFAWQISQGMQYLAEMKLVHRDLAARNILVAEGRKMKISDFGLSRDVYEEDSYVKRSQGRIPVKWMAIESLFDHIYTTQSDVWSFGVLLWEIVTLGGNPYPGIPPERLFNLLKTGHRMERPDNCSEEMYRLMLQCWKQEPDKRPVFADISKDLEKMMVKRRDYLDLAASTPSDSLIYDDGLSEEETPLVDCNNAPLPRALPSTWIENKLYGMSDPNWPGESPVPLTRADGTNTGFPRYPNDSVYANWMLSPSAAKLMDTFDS
Sequence of UniProt Q05655 (whole entry, looked up): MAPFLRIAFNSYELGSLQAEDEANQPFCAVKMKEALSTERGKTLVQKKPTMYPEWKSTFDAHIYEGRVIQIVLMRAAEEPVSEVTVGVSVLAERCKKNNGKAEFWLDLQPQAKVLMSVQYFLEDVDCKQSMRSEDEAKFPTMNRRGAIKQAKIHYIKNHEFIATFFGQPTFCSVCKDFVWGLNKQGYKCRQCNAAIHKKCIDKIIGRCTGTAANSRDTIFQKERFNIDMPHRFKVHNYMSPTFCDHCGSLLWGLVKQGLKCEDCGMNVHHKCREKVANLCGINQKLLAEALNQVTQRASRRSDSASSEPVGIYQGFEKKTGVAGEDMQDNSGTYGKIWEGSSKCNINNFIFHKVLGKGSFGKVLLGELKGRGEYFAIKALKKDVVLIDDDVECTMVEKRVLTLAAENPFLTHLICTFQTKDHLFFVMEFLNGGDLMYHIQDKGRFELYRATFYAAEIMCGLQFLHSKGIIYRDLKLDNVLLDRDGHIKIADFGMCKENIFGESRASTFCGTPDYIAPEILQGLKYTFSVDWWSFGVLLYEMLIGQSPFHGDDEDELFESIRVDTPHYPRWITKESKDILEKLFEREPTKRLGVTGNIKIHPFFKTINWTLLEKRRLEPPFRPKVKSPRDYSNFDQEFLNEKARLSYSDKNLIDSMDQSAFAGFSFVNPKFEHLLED
Sequence of UniProt Q15208 (whole entry, looked up): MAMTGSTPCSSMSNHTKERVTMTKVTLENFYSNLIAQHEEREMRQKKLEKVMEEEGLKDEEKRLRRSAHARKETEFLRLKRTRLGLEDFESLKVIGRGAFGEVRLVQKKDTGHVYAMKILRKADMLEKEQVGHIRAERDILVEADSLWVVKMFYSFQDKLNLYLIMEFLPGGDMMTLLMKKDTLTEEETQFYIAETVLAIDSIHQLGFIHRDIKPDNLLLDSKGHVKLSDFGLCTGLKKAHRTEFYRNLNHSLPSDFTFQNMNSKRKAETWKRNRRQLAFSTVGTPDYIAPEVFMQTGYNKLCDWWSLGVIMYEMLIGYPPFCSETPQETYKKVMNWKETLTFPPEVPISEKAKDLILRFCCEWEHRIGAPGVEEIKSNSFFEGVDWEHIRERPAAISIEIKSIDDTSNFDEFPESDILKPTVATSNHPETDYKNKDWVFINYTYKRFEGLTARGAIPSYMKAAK

SMILES | target | assay | test system | conditions | remaining activity [%]
NC/C(=C\F)COc1cccc(Cn2c(=S)[nH]c(=O)c3[nH]cnc32)c1 | MPO | enzyme activity | – | 2.5 µM | 3.8
CC[C@H](C)[C@H](NC(=O)[C@H](CCC(N)=O)NC(=O)[C@@H](NC(=O)[C@H](CCSC)NC(=O)[C@H](CCCCN)NC(=O)[C@H](CO)NC(=O)[C@@H](NC(=O)[C@H](CCSC)NC(=O)[C@H](CC(C)C)NC(=O)[C@H](CC(N)=O)NC(=O)[C@@H](NC(=O)[C@@H](NC(=O)[C@H](CO)NC(=O)[C@H](CC(C)C)NC(=O)[C@H](C)NC(=O)[C@H](CCCNC(=N)N)NC(=O)[C@H](CCC(=O)O)NC(=O)[C@H](Cc1ccc(O)cc1)NC(=O)[C@H](Cc1ccccc1)NC(=O)[C@H](C)NC(=O)[C@H](CC(N)=O)NC(=O)[C@@H](N)CCCCN)[C@@H](C)CC)[C@@H](C)CC)[C@@H](C)O)C(C)C)C(=O)N[C@@H](CC(N)=O)C(=O)N[C@H](C(=O)O)C(C)C | MAPK3 | enzyme activity, radiometric | – | 500 µM, 20 min | 46
C/C(=N\O)c1ccc(-c2cccc(C#N)c2)c(Cl)c1O | SLC2A1 | transporter uptake, radiometric | NCI-H1299 | 30 µM | 67
CC[C@H](C)[C@H](NC(=O)[C@H](CCC(N)=O)NC(=O)[C@H](CC(C)C)NC(=O)[C@H](CCSC)NC(=O)[C@H](CCCCN)NC(=O)[C@H](CO)NC(=O)[C@H](CO)NC(=O)[C@H](CCSC)NC(=O)[C@H](CC(C)C)NC(=O)[C@H](CC(N)=O)NC(=O)[C@@H](NC(=O)[C@@H](NC(=O)[C@H](CO)NC(=O)[C@H](CC(C)C)NC(=O)[C@H](CS)NC(=O)[C@H](CCCNC(=N)N)NC(=O)[C@H](CC(=O)O)NC(=O)[C@H](Cc1c[nH]c2ccccc12)NC(=O)[C@H](Cc1ccccc1)NC(=O)[C@H](C)NC(=O)[C@H](CCC(=O)O)NC(=O)[C@@H](N)CCCCN)C(C)C)[C@@H](C)CC)C(=O)N[C@@H](CC(N)=O)C(=O)N[C@@H](C)C(=O)O | MAPK3 | enzyme activity, radiometric | – | 10 µM, 20 min | 100
COc1cc(-c2cncc3c2CN(C)Cc2cc(N4CCNCC4)ccc2-3)cc(OC)c1OC | Testis-specific serine/threonine-protein kinase 3 (TSSK3, Homo sapiens, UniProt Q96PN8) | enzyme activity | – | 1 µM | 102
Cc1nn(CC(F)(F)F)cc1Nc1ncc(Br)c(NCCCNC(=O)C2CCC2)n1 | AAK1 | enzyme activity, radiometric | – | 1 µM | 7
COc1ccccc1NC(=O)Nc1ccc2nc(NC(=O)c3ccccc3)sc2c1 | RET | enzyme activity, radiometric | – | 10 µM | 83.7
COc1ccc(Cl)cc1-c1cc(=O)[nH]c(=S)n1CC(N)=O | MPO | enzyme activity | – | 0.625 µM | 71.9
COc1ccc(-n2nc(C(=O)Nc3ccc4c(c3)OCO4)c(=O)cc2OC)cc1OC | RET | enzyme activity, radiometric | – | 10 µM | 78.9
CC(C)OCCn1c(=S)[nH]c(=O)c2[nH]ccc21 | MPO | enzyme activity | – | 0.45 µM | 43.7
Cc1ccc2c(=O)c(C(=O)Nc3ccc(C)c(C)c3)cn(CC(=O)NC3CCCC3)c2n1 | RET | enzyme activity, radiometric | – | 10 µM | 95.9
CCCOc1ccc(OC)c(F)c1C(=O)c1ccc(C(=O)N[C@@H]2CNC[C@H]2NC(=O)c2ccc3[nH]ncc3c2)cc1 | Protein kinase C delta type (PRKCD, Homo sapiens, UniProt Q05655) | enzyme activity | – | 10 µM | 15
C/C(=N\O)c1ccc(-c2ccc(F)cc2)c(Cl)c1O | SLC2A1 | transporter uptake, radiometric | NCI-H1299 | 30 µM | 102
COc1ccc(Cl)cc1NC(=O)Nc1ccc2nc(NC(=O)c3ccccc3)sc2c1 | RET | enzyme activity, radiometric | – | 0.1 µM | 141
CNc1ncc2c(/C=C/C(=O)N3CCC(OC)CC3)nn(Cc3cccc(C(F)(F)F)c3)c2n1 | Serine/threonine-protein kinase 38 (STK38, Homo sapiens, UniProt Q15208) | enzyme activity, radiometric | – | 1 µM | 106
NS(=O)(=O)c1ccc(CNc2nc(Nc3cccc(CN4CCOCC4)c3)ncc2Br)cc1 | AAK1 | enzyme activity, radiometric | – | 1 µM | 12
O=C(Cn1c(=O)n(CC2CCCO2)c(=O)c2ccc(C(=O)NCCc3ccccc3)cc21)Nc1ccc(F)c(Cl)c1 (centres unmarked) | RET | enzyme activity, radiometric | – | 0.1 µM | 116
N=C(N)c1ccc(-c2ccc(-c3ccc(OCCCCCCCCOc4ccc(-c5ccc(-c6ccc(C(=N)N)cc6)o5)cc4)cc3)o2)cc1 | Protein arginine N-methyltransferase 5 (PRMT5, Homo sapiens, UniProt O14744) | enzyme activity, radiometric | – | 20 µM | 12.8
CCOc1ccc(NC(=O)Nc2cc(OC)c3nc(NC(=O)c4ccccc4)sc3c2)cc1 | RET | enzyme activity, radiometric | – | 10 µM | 85
COc1ccc(-c2ccc(/C(C)=N/O)c(O)c2Cl)cc1C | SLC2A1 | transporter uptake, radiometric | NCI-H1299 | 30 µM | 78
Cc1ccc(Nc2nc(N3CCN(C(=O)c4ccco4)CC3)nc3[nH]ncc23)cc1 | RET | enzyme activity, radiometric | – | 0.1 µM | 130
COc1cccc(-c2ccc(/C(C)=N/O)c(O)c2Cl)c1 | SLC2A1 | transporter uptake, radiometric | NCI-H1299 | 30 µM | 67
Cc1nn(CC(F)(F)F)cc1Nc1nccc(NCc2ccc(S(N)(=O)=O)cc2)n1 | AAK1 | enzyme activity, radiometric | – | 1 µM | 82

Repeated from above:
SMILES | target | assay | test system | conditions | remaining activity [%]
N=C(N)c1ccc(-c2ccc(-c3ccc(OCCCCCCCCOc4ccc(-c5ccc(-c6ccc(C(=N)N)cc6)o5)cc4)cc3)o2)cc1 | Protein arginine N-methyltransferase 5 (PRMT5, Homo sapiens, UniProt O14744) | enzyme activity, radiometric | – | 20 µM | 12.8
CCOc1ccc(NC(=O)Nc2cc(OC)c3nc(NC(=O)c4ccccc4)sc3c2)cc1 | RET | enzyme activity, radiometric | – | 10 µM | 85
COc1ccc(-c2ccc(/C(C)=N/O)c(O)c2Cl)cc1C | SLC2A1 | transporter uptake, radiometric | NCI-H1299 | 30 µM | 78
